Assay results from different studies.
Each line is one published result; not all experiments were run side by side.
Cell line: HepG2

NC[C@H]1O[C@H](O[C@H]2[C@H](OCCCCCCCCCCCCn3cc(CNc4nc(NCc5cn(CCCCCCCCCCCCO[C@@H]6[C@@H](O)[C@H](N)C[C@H](N)[C@H]6O[C@H]6O[C@H](CN)[C@@H](O)C[C@H]6N)nn5)nc(NCc5cn(CCCCCCCCCCCCO[C@@H]6[C@@H](O)[C@H](N)C[C@H](N)[C@H]6O[C@H]6O[C@H](CN)[C@@H](O)C[C@H]6N)nn5)n4)nn3)[C@@H](O)[C@H](N)C[C@@H]2N)[C@H](N)C[C@@H]1O — viability (cell growth or viability, resazurin; 27 µM, 48 h): 70%
CCN(c1nc(N[C@H](CC(N)=O)C(=O)NC)nc(N2CCN(c3ccccc3C#N)CC2)n1)C1CCCCC1 — viability (cell growth or viability, resazurin; 50 µM, 72 h): > 95%
O=C(Cc1c(-c2ccccc2)n[nH]c1-c1ccccc1)NO — viability (CytoTox-ONE; 30 µM, 24 h, 10% FBS): 100%
CC(=O)O[C@@H]1CC[C@@]2(C)C(CC[C@]3(C)C2C(=O)C=C2C4[C@@H](C)[C@H](C)CC[C@]4(C)CC[C@]23C)[C@@]1(C)C(=O)N/N=C\c1ccccc1 (some centres unmarked) — viability (cell growth or viability, MTT; 25 µM, 24 h): 92%
NCC1OC(OC2C(N)CC(N)C(OC3OC(CO)C(O)C(N)C3O)C2OCCCCn2cc(CNc3nc(NCc4cn(CCCCOC5C(OC6OC(CN)C(O)CC6N)C(N)CC(N)C5OC5OC(CO)C(O)C(N)C5O)nn4)nc(NCc4cn(CCCCOC5C(OC6OC(CN)C(O)CC6N)C(N)CC(N)C5OC5OC(CO)C(O)C(N)C5O)nn4)n3)nn2)C(N)CC1O (centres unmarked) — viability (cell growth or viability, resazurin; 27 µM, 48 h): 88%
COc1cc([C@@H]2OC[C@@H]3[C@H]2CO[C@H]3c2cc(OC)c(O)c(OC)c2)cc(OC)c1O — viability (cell growth or viability, CCK-8; 40 µM, 24 h): 76.2%
CC(=O)O[C@@H]1CC[C@@]2(C)C(CC[C@]3(C)C2C(=O)C=C2C4[C@@H](C)[C@H](C)CC[C@]4(C)CC[C@]23C)[C@@]1(C)C(=O)OCC(=O)Oc1cc(C)ccc1C(C)C (some centres unmarked) — viability (cell growth or viability, MTT; 25 µM, 24 h): 91%
COc1ccc(Nc2nccc(-c3c[nH]nc3-c3cccnc3)n2)cc1 — viability (cell growth or viability; 30 µM): 78%
CCOC(=O)c1cn(-c2nc(C)n[nH]2)nn1 — viability (cell growth or viability, MTT; 500 µM, 72 h): 89.9%
CC1=CC(OC(=O)c2ccccc2)C2(COC(=O)c3ccccc3)CCC(=C(C)C)C2C(O)CC2(C)OC2CC1 (centres unmarked) — viability (cell growth or viability, CCK-8; 50 µM, 24 h): 68%
CC(=O)O[C@@H]1CC[C@@]2(C)C(CC[C@]3(C)C2C(=O)C=C2C4[C@@H](C)[C@H](C)CC[C@]4(C)CC[C@]23C)[C@@]1(C)C(=O)N/N=C\c1ccc2c(c1)OCO2 (some centres unmarked) — viability (cell growth or viability, MTT; 25 µM, 24 h): 88%

Some of these lines once more:
NC[C@H]1O[C@H](O[C@H]2[C@H](OCCCCCCCCCCCCn3cc(CNc4nc(NCc5cn(CCCCCCCCCCCCO[C@@H]6[C@@H](O)[C@H](N)C[C@H](N)[C@H]6O[C@H]6O[C@H](CN)[C@@H](O)C[C@H]6N)nn5)nc(NCc5cn(CCCCCCCCCCCCO[C@@H]6[C@@H](O)[C@H](N)C[C@H](N)[C@H]6O[C@H]6O[C@H](CN)[C@@H](O)C[C@H]6N)nn5)n4)nn3)[C@@H](O)[C@H](N)C[C@@H]2N)[C@H](N)C[C@@H]1O — viability (cell growth or viability, resazurin; 27 µM, 48 h): 70%
